Results of several laboratories.
A part holds a random share of what one study measured. Changes are numbered by the printed parent chain.

Study 1 — target: CCNB2, cyclin fold, Cln2 fusion (human); method: yeast growth competition, sequencing; medium: yeast; notes: weak parent motif; baseline: not given; reading: higher = stronger binding
Starting sequence: SCAPER docking peptide (human); SNARRSLNFGGST
Change | normalised enrichment score
SNARRTLNFGGST [S6T] | 0.183
SNARRSLNFGGVT [S12V] | -0.112
WNARRSLNFGGST [S1W] | 0.498
SNARRMLNFGGST [S6M] | 0.378
SNIRRSLNFGGST [A3I] | 0.562
SNARRSYNFGGST [L7Y] | 0.417
SNARRSLNEGGST [F9E] | -0.29
SNQRRSLNFGGST [A3Q] | -0.361
SNMRRSLNFGGST [A3M] | 0.778
SNARRSLNFGTST [G11T] | 0.367
SNARRSLNFGWST [G11W] | 0.147
SNARRSLNMGGST [F9M] | 0.627
SNARRSDNFGGST [L7D] | 0.153
SNTRRSLNFGGST [A3T] | 0.07
SNARRSLNFGGYT [S12Y] | 0.214

Study 2 — method: RNA Bind-n-Seq; molecule type: RNA; medium: in vitro; concentration: 365 nM; baseline: no-protein control; reading: higher = stronger binding
Target: RNA binding protein fox-1 homolog 2, RRM domain, GST-SBP tag (RBFOX2, Homo sapiens, UniProt O43251-10, residues 100-194)
Notes: natural RNA segment, single round, ends assumed
Constant ends, left off below: GGGAGUUCUACAGUCCGACGAUC … UGGAAUUCUCGGGUGCCAA
Residues (chain): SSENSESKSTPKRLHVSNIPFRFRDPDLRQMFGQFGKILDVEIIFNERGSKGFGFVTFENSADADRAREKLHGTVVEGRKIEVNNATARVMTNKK
Strand | RBNS enrichment (R)
CGCCAUUUAACUUUCAGGUCGAUUUCCUUUCCUGAUCAGACAUCUUUGUGCCCCCUUUAGGAAGGAAAAGAAUACACCUACGAUGUGCCAGGCACUGUGUUAGGCGCUUU | 0.244
UUCGGUUUUACAAAGGAAGAACAGGUUUCCUAAGGCCGAGGAAAUCUUGGAGAAUAAAAAAGGACUUGGAAAACAAGUCUUAGUAGUCAUUCAGAGGACUCAAGUACUAG | 0.479
AAUAUUUGUUUGGGUGGUUUGUGAGCCUUGCUGCCAAGUCCUGCCUUUGGGUCGACAUAGUAUGGAAGUAUUUGAGAGAGAGAACCUUUCCACUCCCACUGCCAGGAUUU | 0.713
UUACUGACUCCAUUGAGUCCCUGAGCAUCUGUACAUAGCCUUCACCACCCCCAGUCUCAAUCCUGUGCCGACAAAGGAAGUGGACGAAUUAGUGAUGAUGGUGGGCGUGA | 0.241
AAGUGUAUUUAAUGUCUGUGUCAUGUAUAUGCCAAAAUUUUAAUCCCCUAUAAAUAAAACAUGUGUCACAAAACUGUAGGCUGAAUUUCUUAACCAAUUAGACUAGCACA | 1.12
CUGUCAAAAUAAUGUUAUGCUUUUGAAAGAUAAAGCCUGCUCAAUCUAGGGAUCCAGUUGUGCAGUAGAGUUCAGACUUCUCAUCCAAUCUUAUAUUGUAGGCAUUUCUC | 0.86
CCCACUAAAGGAAAAGCUAAUUCUAUUGCCCCAGGGUGCAUAUUUCUAUGCCUUAUUUGAGUUAUCACUUGGAGGGAGGUGGAAGUUGACUCUCUUUUUCACUGUAGAAU | 0.513
CGGACCCUCCUCUUUGGGCCUCGUGAGCUUUUUUGCUUAUCAUGUUCCAUUUCGUGCCGCUUUCCCCCUUCAAGAUGCCAUUUGGAGGGUAGGGGAUCUGCUUCCCACUG | 0.294
ACCUAGAAACAAGGAUUCUACCUGAACUGAAAGGACUGUGUGACCUCCCCCAAGCCAACCACUUUCACCUGGGAUGACUUUCGAUUAUGCUUUGUUUUGGGGCUGUAUUU | 0.257
UGAUUUUUUAAAUAUCAUGUAAUGUUAAAACGUUUUCUAACAGUUUACUGUUGCUUAUCUCCAAGAUAUUAUGGAAUUAAGAAUUUUUCCAGAUGAGUGUUACAUAGAUU | 0.568
CUAUUCUCAGAGGUUUGGACUUUCGUAUUGUAAUUAGCUCUGUUGGCAUGGUGACUUGUCACUCCUGCCAAAAAUAUUAAAAAUGCCUUUUUUGGAAGGACUACAGAAAG | 0.457
ACCUGUUCAGAUGAGAAGAUUUUUGUCUUUUGUAGCACUGAUAACCAGGAGAAGCCAUUAAAAGCCACUGGUUAUUUUAUUUUUCAUCAGGCAAUUUUCGAGGUUUUUAU | 0.348

Study 3 — method: protein-binding microarray; molecule type: double-stranded DNA, one strand shown; medium: in vitro; concentration: not given; reading: higher = stronger binding
Target: Protein C-ets-1 (ETS1, Homo sapiens, UniProt P14921, residues 1-441, full length assumed)
Notes: k-mer, scored over probes, only values ≥0.25
Construct (chain): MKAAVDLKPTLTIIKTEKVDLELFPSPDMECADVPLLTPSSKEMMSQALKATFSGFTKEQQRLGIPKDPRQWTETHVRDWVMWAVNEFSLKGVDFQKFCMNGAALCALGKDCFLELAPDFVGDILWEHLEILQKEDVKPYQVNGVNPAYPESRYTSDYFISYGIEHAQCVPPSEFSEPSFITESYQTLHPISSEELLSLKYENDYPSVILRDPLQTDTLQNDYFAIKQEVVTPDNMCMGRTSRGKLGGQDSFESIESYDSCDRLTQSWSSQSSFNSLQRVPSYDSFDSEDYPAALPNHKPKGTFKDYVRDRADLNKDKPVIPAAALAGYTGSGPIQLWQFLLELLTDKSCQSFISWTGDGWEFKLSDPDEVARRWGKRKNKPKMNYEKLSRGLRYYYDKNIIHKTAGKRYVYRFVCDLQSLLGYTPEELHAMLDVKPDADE
Strand | E-score
ACCCGGAC | 0.297
AGGATGAA | 0.287
ATATCCTG | 0.431
AATTCCGC | 0.345
AGGGGAAG | 0.376
CTACATCC | 0.458
CCGGGGGA | 0.37
GGATGCAC | 0.371
AGGAAAAC | 0.334
CCGGTTCC | 0.347
CACCGGGA | 0.313
TCAGCGGA | 0.374
GTGCCGGA | 0.425

Study 4 — method: DHFR PCA, deep sequencing; medium: yeast; together with: (+)-ABA 0 µM; baseline: wild-type fitted maximum; reading: higher = stronger binding
Target: ABI1, truncated, D143A, DHFR fusion (Arabidopsis thaliana)
Notes: methotrexate growth selection, single substitutions
Starting sequence: PYL1, truncated, DHFR fusion (Arabidopsis thaliana); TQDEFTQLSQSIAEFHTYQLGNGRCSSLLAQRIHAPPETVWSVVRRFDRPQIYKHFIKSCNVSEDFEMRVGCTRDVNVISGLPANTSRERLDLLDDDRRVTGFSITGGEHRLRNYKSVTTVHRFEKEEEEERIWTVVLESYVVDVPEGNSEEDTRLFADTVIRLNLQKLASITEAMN
Change | relative binding score [%]
R45W | -3.13
E129V | 18.3
D96S | -1.94
H55P | 58
T73Y | 50.8
H110F | 15.7
F47Q | -1.57
D48Q | -8.54
P146K | -5.95
F66Y | -1.07
D97G | 8.12
K168D | 1.48

Study 5 — method: RNA Bind-n-Seq; molecule type: RNA; medium: in vitro; concentration: 1 µM; notes: whole 134-nt RNA, ends assumed; together with: 150 mM KCl; baseline: input library; reading: higher = stronger binding
Target: Ras GTPase-activating protein-binding protein 1, RRM domain (G3BP1, Homo sapiens, UniProt Q13283)
UniProt Q13283, sequence (whole entry, looked up): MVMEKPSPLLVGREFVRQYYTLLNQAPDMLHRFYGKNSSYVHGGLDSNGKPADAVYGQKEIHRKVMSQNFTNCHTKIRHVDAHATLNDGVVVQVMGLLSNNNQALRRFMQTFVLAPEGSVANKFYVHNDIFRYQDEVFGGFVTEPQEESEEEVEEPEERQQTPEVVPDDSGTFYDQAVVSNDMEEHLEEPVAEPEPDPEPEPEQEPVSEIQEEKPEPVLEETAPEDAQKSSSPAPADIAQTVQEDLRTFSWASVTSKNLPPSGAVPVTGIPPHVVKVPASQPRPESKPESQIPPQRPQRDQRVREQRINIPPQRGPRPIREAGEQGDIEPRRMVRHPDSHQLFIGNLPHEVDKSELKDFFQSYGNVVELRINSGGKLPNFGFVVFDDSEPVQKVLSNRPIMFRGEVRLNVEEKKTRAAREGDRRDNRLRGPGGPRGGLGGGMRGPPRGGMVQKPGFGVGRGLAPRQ
Constant ends, left off below: GGGAGUUCUACAGUCCGACGAUC … UGGAAUUCUCGGGUGUCAAGG
Strand | log2 enrichment
CACAGACAACACGCACCCACAUAGACACAGAGGGAAGGGGUUGGGAUGGGGACAGGGUGCACAGCAGGGCGGGGUAGGACCCCAGCCCCU | 0.142
AGUCCUGUGCUACACAUCGUAUGUACCGAAUCGGUUUUGGGGUUUUGGGGUUUUGGGGAAAGUAUUAUGUUACGCCGUUCGGAUCUGCAC | 0.0179
UCCUUUUUUUUUUUCUUUGAAUGUAUUUAUUUCUUGUAGUCUACUGGUGCUGUUGUGACGGAGAGCCAGACGUACAAAAACCGAGCUGGU | -1.49
UAACUUUAGAGGAGGAUCUGAUGGAUAUGGCAGUGGACGUGGAUUUGGGGAUGGCUAUAAUGGGUCUGGAGGAGGACCUGGAGGUGGCAA | -0.496
AGUCCUGUGCUACACAUCGUAUGUACCGAAUCGGAAAAGGGAAAAGGGGAAAAGGGGAAAGUAUUAUGUUACGCCGUUCGGAUCUGCACU | 0.239
GUCCUGUGCUACACAUCGUAUGUACCGAAUCGGGUUUGGGAAAAAAAGGGUUUUUGGGAAAGUAUUAUGUUACGCCGUUCGGAUCUGCAC | 0.279
CAAGUCCUGUGCUACACAUCGUAUGUACCGAAUCGGGGAAAGGGAAAGGGGAAAGGAAAGUAUUAUGUUACGCCGUUCGGAUCUGCACUU | -0.197
CUCAAGUCCUGUGCUACACAUCGUAUGUACCGAAUCGGGCCGGCCGGGCCGGGGAAAGUAUUAUGUUACGCCGUUCGGAUCUGCACUUCC | -0.277
UGGCCCUGGUGGCAUGCGGGGAGGAAGAGGUGGCCUCAUGGAUCGUGGUGGUCCCGGUGGAAUGUUCAGAGGUGGCCGUGGUGGAGACUG | 1.37
UCCUCAAGUCCUGUGCUACACAUCGUAUGUACCGAAUCGGGGUGGGUGGUGGAAAGUAUUAUGUUACGCCGUUCGGAUCUGCACUUCCAG | -0.0777
GUCCUGUGCUACACAUCGUAUGUACCGAAUCAAACCCAAACCCCCCCAAACCCCCAAAAAAGUAUUAUGUUACGCCGUUCGGAUCUGCAC | -0.172
ACCAUGCAGGUGGGCAUCUUUGGGAAGUGGCGCAAGGGGGGGAUAGGGAGGGGGGUAACACUUUGGGAACAGGUGGUCCCAGGUCGUUUC | -0.504
UGUGCUACACAUCGUAUGUACCGAAUCGGGGAAAAAAAGGGAAAAAAAGGGAAAAAAAGGGGAAAGUAUUAUGUUACGCCGUUCGGAUCU | 0.243
ACCAUGCAGGUGGGCAUCUUUGGGAAGUGGGGCAAGGGGGGGAUAGGGAGGGGGGUAACACUUUGGGAACAGGUGGUCCCAGGUCCUUUC | 0.669

A few entries again (study 1):
Change | normalised enrichment score
SNARRTLNFGGST [S6T] | 0.183
SNARRSDNFGGST [L7D] | 0.153
SNARRMLNFGGST [S6M] | 0.378
SNMRRSLNFGGST [A3M] | 0.778
SNQRRSLNFGGST [A3Q] | -0.361
